Experimental data pooled from the literature.
Protocols differ between the studies behind these lines. ± marks the error that the study gave.
ADORA1: Adenosine receptor A1 (ADORA1, Homo sapiens, UniProt P30542)
SLC10A2: Ileal sodium/bile acid cotransporter (SLC10A2, Homo sapiens, UniProt Q12908)
ABO G235S/G268A/L266M/R176G: Histo-blood group ABO system transferase (ABO, Homo sapiens, UniProt P16442, G235S/G268A/L266M/R176G)
ESR2: Estrogen receptor beta (ESR2, Homo sapiens, UniProt Q92731)
T1: DNA aptamer; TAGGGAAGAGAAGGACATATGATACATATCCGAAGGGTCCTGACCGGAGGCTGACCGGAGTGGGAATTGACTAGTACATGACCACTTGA

CC(=O)N[C@H](C(=O)N1CCC[C@H]1C(=O)N[C@H](C(=O)N[C@@H](Cc1ccccc1)C(N)=O)[C@@H](C)O)[C@@H](C)OP(=O)(O)O
activity (Breast cancer type 1 susceptibility protein, tandem BRCT domains (BRCA1, Homo sapiens, UniProt P38398); binding, fluorescence polarization; concentration not given): inactive

CCc1nc2cc3ccccc3cc2cc1C(=O)N[C@@H](CCCCN)C(=O)N[C@@H](C/C=C/C[C@H](NC(=O)[C@H](CCCCN)NC(=O)c1cc2cc3ccccc3cc2nc1CC)C(=O)N1CCC[C@H]1C(=O)NCCCN)C(=O)N1CCC[C@H]1C(=O)NCCCN
residence time ((CCUG)10 RNA; SPR): 256 s

CCCn1c(=O)c2[nH]c(-c3ccc(OCC(=O)NCCNC(=O)CCCCCCCNS(=O)(=O)c4cccc5c(N(C)C)cccc45)cc3)nc2n(CCC)c1=O
maximal inhibition (ADORA1; radioligand binding, whole-cell binding; CHO-A1; 2 h, added: [3H]DPCPX; relative to: specific binding, 10 µM XAC): 91 ± 0.5%

CC(CCC(=O)NC(CCC(=O)Nc1ccccc1O)C(=O)O)C1CCC2C3C(O)CC4CC(O)CCC4(C)C3CCC12C (stereo not shown)
Kt (SLC10A2; transport, substrate, LC-MS/MS; ASBT-MDCK cells): 5.57 µM

C=CCn1c(=O)c2ccccc2n2c(SCC(=O)Nc3ccc(NC(C)=O)cc3)nnc12
log cooperativity factor (Muscarinic acetylcholine receptor M2 (Rattus norvegicus, UniProt P10980); allosteric modulator; rat hypothalamus membranes; added: NMS, iperoxo agonist): 1.1 ± 0.31

CCC(=C(c1ccc(Cl)cc1)c1ccc(OCCN2CCCC2)cc1)c1ccc(Cl)cc1
fold activation (Estrogen receptor (ESR1, Homo sapiens, UniProt P03372); reporter gene, agonist, yeast estrogen screen; 1 µM; relative to: DMSO): 1.16 ± 0.09 fold

CCCNCC(=O)O
hypochromicity (Albumin (ALB, Homo sapiens, UniProt P02768); binding, UV-vis absorption titration; concentration not given): 38.3%

N=C(N)NCCC[C@H](NC(=O)[C@H](CC(=O)O)NC(=O)[C@@H]1CSCCC(=O)NCC(=O)N[C@@H](Cc2c[nH]cn2)C(=O)N[C@H](Cc2ccccc2)C(=O)N[C@@H](CCCNC(=N)N)C(=O)N[C@@H](Cc2c[nH]c3ccccc23)C(=O)N1)C(=O)N[C@@H](Cc1ccccc1)C(=O)NCC(N)=O
activation (MC3R (Homo sapiens, UniProt P41968); cAMP accumulation, agonist; HEK293 expressing MC3R; 10 µM; relative to: MT-II): 52%

C[C@]12CC[C@@H]3c4ccc(O)cc4C(=NOCC(=O)O)C[C@H]3[C@@H]1CC[C@@H]2O
Kd (T1, DNA aptamer; bead-ELAA; NaCl 100 mM): 15.2 nM

C[C@@H]1O[C@@H](O[C@H]2C(=O)c3c(O)cc(O)cc3O[C@@H]2c2ccc(O)cc2)[C@H](O)[C@H](O)[C@H]1O
binding site number (PTPN1 (Homo sapiens, UniProt P18031); fluorescence quenching; concentration not given): 1.02

CCCCCCOc1ccc(C(=O)OCCN2CC=CCC2)cc1
cooperativity factor (CHRM5 (Homo sapiens, UniProt P08912); antagonist, measured: inositol phosphates; CHO; M5, added: carbachol): 0.0008 ± 0.0003

COc1ccc(C(/C=C\CN2CCC[C@H](C(=O)O)C2)(c2ccc(OC)cc2)c2ccc(OC)cc2)cc1
remaining specific binding (Sodium- and chloride-dependent glycine transporter 1, isoform GlyT1c (SLC6A9, Homo sapiens, UniProt P48067); inhibitor, MS binding competition; 1.0 µM, pH 7.5, 22 °C, compound mixture deconvolution, added: Org24598 15 nM): 38.9 ± 1%

CCNC(=O)C1OC(n2cnc3c(NCC(c4ccccc4)c4ccccc4)nc(NCCNC(=O)Nc4cc[n+](C)cc4)nc32)C(O)C1O (stereo not shown)
duration of cAMP response (ADORA2A (Homo sapiens, UniProt P29274); agonist, HTRF; CHO cells expressing ADORA2A; concentration not given, after washout): ≥ 5 h

CC[C@H](C)[C@H](NC(=O)CNC(C)=O)C(=O)N[C@@H](CCCNC(=N)N)C(=O)N[C@@H](CCC(=O)O)C(=O)N[C@@H](C)C(=O)N[C@H](C(=O)N[C@@H](CC(C)C)C(=O)N[C@@H](CCCNC(=N)N)C(=O)N[C@@H](C)C(=O)N[C@@H](Cc1c[nH]c2ccccc12)C(=O)N[C@@H](CCC(=O)O)C(=O)N[C@@H](CCCNC(=N)N)C(=O)N[C@@H](CCCNC(=N)N)C(=O)N[C@@H](Cc1ccc(O)cc1)C(=O)NCC(=O)N[C@@H](Cc1ccccc1)C(=O)N1CCC[C@H]1C(=O)N[C@@H](CCCNC(=N)N)C(=O)N1CCC[C@H]1C(=O)N[C@@H](CC(C)C)C(=O)N[C@@H](CCCNC(=N)N)C(=O)N[C@@H](CO)C(=O)N[C@@H](CCC(=O)O)C(N)=O)[C@@H](C)O
binding stoichiometry (Antirepressor protein CarS (carS, Myxococcus xanthus, UniProt Q06911); ITC; concentration not given, pH 7.5, 35 °C): 0.89 ± 0.01

C=CCCCCCCO[C@@H]1O[C@H](CO)[C@@H](O[C@@H]2O[C@H](CO)[C@H](O)[C@H](O)[C@H]2O[C@@H]2O[C@@H](C)[C@@H](O)[C@@H](O)[C@@H]2O)[C@H](O)[C@H]1O
koff (ABO G235S/G268A/L266M/R176G; methyl-TROSY NMR titration lineshape analysis; apo enzyme): 340 ± 10 s⁻¹

CC(CCC(=O)NC(CCC(=O)Nc1cccnc1F)C(=O)O)C1CCC2C3C(O)CC4CC(O)CCC4(C)C3CCC12C (stereo not shown)
normalized Jmax/Kt (SLC10A2; transport efficiency, substrate, LC-MS/MS; ASBT-MDCK): 26.7 µM⁻¹

Cc1sc2c(c1C)C(c1ccc(Cl)cc1)=N[C@@H](CC(=O)N1CCN(CC3CCN(C(=O)CN4CCC(Nc5cccc6c5cc(C#CCNc5ccc(P(C)(C)=O)cc5)n6CC(F)(F)F)CC4)CC3)CC1)c1nnc(C)n1-2
cooperativity alpha (human p53 Y220C; TR-FRET; added: BRD4 BD1; relative to: IC50 without over with BRD4): 1.2

Nc1nc2cc(CC[C@H]3C[C@@H](n4ccc5c(N)ncnc54)[C@H](O)[C@@H]3O)ccc2cc1Br
koff (Protein arginine N-methyltransferase 5, with WDR77 (PRMT5, Homo sapiens, UniProt O14744); binding, SPR): < 0.000396 s⁻¹

CCNC(=O)[C@H]1O[C@@H](n2cnc3c(NCCOCCOCCNC(=O)CCCCCNC(=O)COc4ccc(/C=C/C5=[N+]6C(=Cc7ccc(-c8cccs8)n7[B-]6(F)F)C=C5)cc4)ncnc32)[C@H](O)[C@@H]1O
maximal Gs response (ADORA1; CRE reporter gene, agonist; CHO-A1; PTX 100 ng/mL overnight, added: forskolin 3 µM; relative to: forskolin alone): 1.31 ± 0.06 fold increase

CC(C)(C)CCN1C[C@@H]2[C@@H](CNC(=O)c3cc(Cl)cc(Cl)c3)[C@@H]2C1.Cl
reversal potential (Voltage-dependent L-type calcium channel subunit alpha-1F (Homo sapiens, UniProt O60840, M1004A); calcium current, whole-cell patch clamp; HEK-293T cells; 100 µM): 60.8 ± 4.45 mV

CC(=N)NCc1cccc(CN)c1
NMDA-evoked cGMP accumulation (Nitric oxide synthase 1 (Mus musculus, UniProt Q9Z0J4); adult mouse hippocampal slices; 1 µM, added: BAY 60-7550 1 µM): no effect

CN1CCN(CC(=O)N2N=C3/C(=C/c4ccccc4)CCCC3C2c2ccccc2)CC1 (mixture of isomers)
enzyme activity (ALOX5 (Homo sapiens, UniProt P09917); activator; 20 µM, added: arachidonic acid; relative to: activator 0 µM): 91.3%

CCCCCCCCO[C@@H]1O[C@H](CO)[C@H](O)C[C@H]1O[C@@H]1O[C@@H](C)[C@@H](O)[C@@H](O)[C@@H]1O
koff (ABO G235S/G268A/L266M/R176G; binding, methyl-TROSY NMR titration; added: saturating UDP-Glc): 390 ± 20 s⁻¹

N#Cc1c(N)nc(SCc2ncc[nH]2)c(C#N)c1-c1cccc(F)c1
Emax (ADORA1; cAMP, agonist): 32%

OC[C@H]1O[C@@H](n2cnc3c(Nc4cccc(Br)c4)ncnc32)[C@H](O)[C@@H]1O
koff (ADORA3 (Homo sapiens, UniProt P0DMS8); kinetic radioligand binding; 10 °C, no GTP, added: [3H]PSB-11): 0.0011 ± 4e-05 s⁻¹

[3H]C([3H])([3H])c1cnccc1CN1C[C@@H](c2cc(F)c(F)c(F)c2)CC1=O
total binding (SV2A (Homo sapiens, UniProt Q7L0J3); radioligand binding, autoradiography; human, post-mortem temporal lobe; 5 nM): 424 fmol/mg

CCc1c(-c2ccc(O)cc2)nn(-c2ccc(O)cc2)c1-c1ccc(OCCN2CCCCC2)cc1
relative binding affinity (ESR2; competitive radioligand binding; concentration not given; relative to: estradiol, higher = stronger binding): 0.49 ± 0.13

CC(=O)N[C@H](C(=O)N[C@@H](CC(C)C)C(=O)N[C@@H](CC(=O)O)C(=O)N[C@@H](CO)C(=O)N[C@@H](Cc1ccccc1)C(=O)N[C@@H](CCCCN)C(=O)N[C@H](C(=O)N[C@@H](CO)C(=O)N[C@@H](Cc1ccccc1)C(=O)N[C@@H](CC(C)C)C(=O)N[C@@H](CO)C(=O)N[C@@H](C)C(=O)N[C@@H](CC(C)C)C(=O)N[C@@H](CCC(=O)O)C(=O)N[C@@H](CCC(=O)O)C(=O)N[C@@H](Cc1ccc(O)cc1)C(=O)N[C@H](C(=O)N[C@@H](CCCCN)C(=O)N[C@@H](CCCCN)C(=O)N[C@@H](CC(C)C)C(=O)N[C@@H](CC(N)=O)C(=O)N[C@H](C(=O)N[C@@H](CCC(N)=O)C(N)=O)[C@@H](C)O)[C@@H](C)O)C(C)C)C(C)C
cholesterol efflux (ABCG1 (Homo sapiens, UniProt P45844); BHK transfected with ABCG1; 18 h): no effect

O=c1cc(-c2ccc(O)c(-c3c(-c4ccc(O)cc4)oc4cc(O)cc(O)c4c3=O)c2)oc2cc(O)cc(O)c12
Hill coefficient (PRXC1A (Armoracia rusticana, UniProt P00433); substrate, Hill kinetic model; product formation, added: hydrogen peroxide NG): 2.94

Fc1cc2scnc2cc1Nc1ncnc2sc(C3=CCCNC3)cc12
remaining activity (RIPK1 (Homo sapiens, UniProt Q13546); kinase activity; 1 µM; relative to: control): 95 ± 1%

CCCn1c(=O)c2[nH]c(-c3ccc(OCC(=O)NCCNC(=O)CCCCCNC(=O)COc4ccc(/C=C/C5=[N+]6C(=Cc7ccc(-c8cccs8)n7[B-]6(F)F)C=C5)cc4)cc3)nc2n(CCC)c1=O
inverse agonist response (ADORA1; CRE reporter gene, inverse agonist; CHO-A1; concentration not given, added: forskolin; relative to: forskolin alone): 1.32 ± 0.04 fold increase

C[C@@]1(CCCN2CCN(c3ccccn3)CC2)Cc2cc(Cl)ccc2C1=O
Hill slope (HTR7 (Homo sapiens, UniProt P34969); binding, radioligand binding; HEK293 transfected, membranes; added: [3H]5-HT): -0.59 ± 0.02

CC1=C(/C=C/C=C\C=C\C(C)=C\C=O)C(C)(C)CCC1
mature over immature ratio (Rhodopsin (RHO, Homo sapiens, UniProt P08100, P23H); immunoblot; 661W rod opsin P23H; 2.5 µM; relative to: mature over immature): ~3

CCC(=C(c1ccc(O)cc1)c1ccc(OCCN(C)CCOCCOCCOCCOCCOCCOCCOCCOCCOCCOCCN(C)CCOc2ccc(C(=C(CC)c3ccccc3)c3ccc(O)cc3)cc2)cc1)c1ccccc1 (mixture of isomers)
relative binding affinity (ESR2; concentration not given, Z-Z:Z-E:E-E 1:2:1, added: [3H]-estradiol; relative to: estradiol): 9.53 ± 2.4%

Some of these lines once more:
C[C@]12CC[C@@H]3c4ccc(O)cc4C(=NOCC(=O)O)C[C@H]3[C@@H]1CC[C@@H]2O
Kd (T1, DNA aptamer; bead-ELAA; NaCl 100 mM): 15.2 nM

COc1ccc(C(/C=C\CN2CCC[C@H](C(=O)O)C2)(c2ccc(OC)cc2)c2ccc(OC)cc2)cc1
remaining specific binding (Sodium- and chloride-dependent glycine transporter 1, isoform GlyT1c (SLC6A9, Homo sapiens, UniProt P48067); inhibitor, MS binding competition; 1.0 µM, pH 7.5, 22 °C, compound mixture deconvolution, added: Org24598 15 nM): 38.9 ± 1%

C=CCn1c(=O)c2ccccc2n2c(SCC(=O)Nc3ccc(NC(C)=O)cc3)nnc12
log cooperativity factor (Muscarinic acetylcholine receptor M2 (Rattus norvegicus, UniProt P10980); allosteric modulator; rat hypothalamus membranes; added: NMS, iperoxo agonist): 1.1 ± 0.31

CCCCCCCCO[C@@H]1O[C@H](CO)[C@H](O)C[C@H]1O[C@@H]1O[C@@H](C)[C@@H](O)[C@@H](O)[C@@H]1O
koff (ABO G235S/G268A/L266M/R176G; binding, methyl-TROSY NMR titration; added: saturating UDP-Glc): 390 ± 20 s⁻¹
